Results of several laboratories.
Several values in a cell are separate wells, animals, samples, runs or records.
Target: Dual specificity mitogen-activated protein kinase kinase 1 (MAP2K1, Homo sapiens, UniProt Q02750)

SMILES | test | setting | how to read | quantity | value
CN1CCN(Cc2ccc(NC(=O)c3cccc(C#Cc4cnc(N)c5ncccc45)c3)cc2C(F)(F)F)CC1 | cell-free assay, competition with immobilised ligand | 50 nM | – | remaining binding | 76%
CCOC(=O)c1ccc2n[nH]cc2c1 | SPR | 200 µM, 25 °C | – | binding response | 0.9 RU
CC(=O)N1c2ccc(-c3ccc(CNC(=O)c4cn5cc(-c6cnc(N)nc6)nc(N6CCOCC6)c5n4)cc3)cc2CC[C@@H]1C | KINOMEscan | 10 µM | – | remaining binding | 86%
Cc1ccc(C)c(-c2ccc3nc(NC(=O)C4CCCCC4)nn3c2)c1 | enzyme activity, Dundee kinase panel | 10 µM | – | remaining activity | 59%
CN1CC[C@@H](COc2cnc(C#N)cc2-c2ccn3nc(NC(=O)C4CC4)cc3c2)C1 | enzyme activity, inhibitor | 1 µM | – | inhibition | 9%
CNS(=O)(=O)Nc1nccc(Cc2c(C)c3ccc(Oc4ncccc4F)cc3oc2=O)c1F | binding, competition with immobilised ligand | 10 µM | – | remaining binding | 0%
COc1c(Cl)cccc1Nc1c(-c2ccncc2C#C[C@@]2(C)CCCN2C(=O)/C=C/CN(C)C)[nH]c2c1C(=O)NCC2 | binding, competition with immobilised ligand | 3 µM | – | remaining binding | 95%
COc1c(OCCCN2CCOCC2)ccc2c1N=C(NC(=O)c1cnc(N)nc1)N1CCN=C21 | kinase activity, inhibitor | 1 µM | reference: untreated control | remaining activity | 106%
COc1ccc(O)cc1-c1c[nH]c2ncc(-c3cncc(C(=O)N(C)C)c3)cc12 | binding, competition with immobilised ligand | 0.2 µM | – | inhibition | 5.5%
Cc1cccc(-c2ccc3nc(NC(=O)C4CCCO4)nn3c2)c1 (stereo not shown) | enzyme activity, Dundee kinase panel | 10 µM | – | remaining activity | 47%
COCC12C(=O)NC3C4(C(OC)CC1O)C1CC5(O)C(OC)C(O)C(OC(C)=O)(C1C5OC(=O)c1ccccc1)C3(O)C(OC)C24 (stereo not shown) | kinase activity, inhibitor, ProQinase kinase profiling | 25 µM | reference: control | remaining activity | 130% and 106%
CNC(=O)C1CCN(c2cc(C)c(F)cc2NC(=O)c2ccc(-c3cc(O)ccc3C)c(C)c2)CC1 | binding, competition with immobilised ligand | 1 µM | – | remaining binding | 82%
COc1ccc(NC(=O)Nc2ccc3c(c2)C(=O)N(C(C)CO)CC(C)C(CN(C)Cc2ccc4c(c2)OCO4)O3)cc1 (stereo not shown) | kinase activity, KinaseProfiler | 0.03 µM, species human | reference: control | remaining activity | 106%
CNC(=O)C[C@H](Cc1ccc(C#N)cc1)NC(=O)c1cc(-c2ccc(CN[C@H](C)c3ccc(C)cc3)o2)ccc1Cl | enzyme activity, inhibitor | 1 µM | – | activity vs control | 109%
Nc1ncc(-c2cc(-c3cnn(CC(F)(F)F)c3)ncc2F)nc1C(=O)NC1CNCC(F)C1 (stereo not shown) | enzyme activity | 1 µM | reference: DMSO control | remaining activity | 99.9%
C=C1CCCCCCCCCC(CO)C1=O (stereo not shown) | cell-free assay, competition with immobilised ligand | 10 µM | – | remaining binding | 71%
C=CC(=O)N1CCCC(n2c(=O)c3ncccc3n(Cc3ccc(Oc4ccccc4)cc3)c2=O)C1 (stereo not shown) | cell-free assay, competition with immobilised ligand | 1 µM | – | remaining binding | 73%
Cc1nc2c(F)cc(-c3nc(Nc4ccc(CNC(=O)CCCCCCC(=O)NO)cc4)ncc3F)cc2n1C(C)C | enzyme activity, inhibitor | 1 µM | – | inhibition | 54%
C[C@H]1CN(C(=O)c2cn(-c3ccnc(N)n3)c3cc(C#CC4(O)CCCCC4)ccc23)CCN1 | enzyme activity, inhibitor, FRET | 1 µM | – | inhibition | 0%
NC(=O)C[C@H]1CCc2sc3ncnc(O[C@H]4CC[C@H](N5CCOCC5)CC4)c3c21 | enzyme activity, inhibitor | 10 µM | – | inhibition | 7%
Cc1c[nH]c2nccc(-c3ccc(C(=O)N[C@@H]4c5c(F)cc(C(F)F)cc5C[C@@H]4O)cn3)c12 | binding, competition with immobilised ligand | 3 µM | – | remaining binding | 0.3%
O=C=[N][Ru-4]123([n]4c5ccc(O)cc5c5c6c(c7cc(F)c[n+]1c7c54)C(=O)NC6=O)[S+]1CC[S+]2CC[S+]3CC1 (stereo not shown) | enzyme activity | 100 nM, human enzyme, added: 10 µM ATP | reference: untreated | remaining activity | 103%
Cc1cccc(O[C@H]2CCC[C@@H](C(C)CNCc3ccncc3)C2)c1 (relative stereo) | enzyme activity, inhibitor | 10 µM | – | inhibition | -9%
Nc1ncc2c(n1)-c1c([nH]c3ccc(C4=CCOCC4)cc13)CCC2 | binding, competition with immobilised ligand | 1 µM | – | remaining binding | 100%
C=CC(=O)Nc1cccc(-c2cnc3[nH]cc(C(=O)NC(C)(C)C)c3n2)c1 | kinase activity | 0.1 µM | – | inhibition | 5% and 6%

Excerpt of the above:
SMILES | test | setting | how to read | quantity | value
Cc1ccc(C)c(-c2ccc3nc(NC(=O)C4CCCCC4)nn3c2)c1 | enzyme activity, Dundee kinase panel | 10 µM | – | remaining activity | 59%
CN1CC[C@@H](COc2cnc(C#N)cc2-c2ccn3nc(NC(=O)C4CC4)cc3c2)C1 | enzyme activity, inhibitor | 1 µM | – | inhibition | 9%
CNS(=O)(=O)Nc1nccc(Cc2c(C)c3ccc(Oc4ncccc4F)cc3oc2=O)c1F | binding, competition with immobilised ligand | 10 µM | – | remaining binding | 0%
